Experimental data of several laboratories.
Each line is one published result; not all experiments were run side by side. “And” joins repeats or separate records; there may be more than shown. Numbers after ± are the reported error.
Target: Acetylcholinesterase (ache, Electrophorus electricus, UniProt O42275)
Sequence of UniProt O42275 (whole entry, looked up): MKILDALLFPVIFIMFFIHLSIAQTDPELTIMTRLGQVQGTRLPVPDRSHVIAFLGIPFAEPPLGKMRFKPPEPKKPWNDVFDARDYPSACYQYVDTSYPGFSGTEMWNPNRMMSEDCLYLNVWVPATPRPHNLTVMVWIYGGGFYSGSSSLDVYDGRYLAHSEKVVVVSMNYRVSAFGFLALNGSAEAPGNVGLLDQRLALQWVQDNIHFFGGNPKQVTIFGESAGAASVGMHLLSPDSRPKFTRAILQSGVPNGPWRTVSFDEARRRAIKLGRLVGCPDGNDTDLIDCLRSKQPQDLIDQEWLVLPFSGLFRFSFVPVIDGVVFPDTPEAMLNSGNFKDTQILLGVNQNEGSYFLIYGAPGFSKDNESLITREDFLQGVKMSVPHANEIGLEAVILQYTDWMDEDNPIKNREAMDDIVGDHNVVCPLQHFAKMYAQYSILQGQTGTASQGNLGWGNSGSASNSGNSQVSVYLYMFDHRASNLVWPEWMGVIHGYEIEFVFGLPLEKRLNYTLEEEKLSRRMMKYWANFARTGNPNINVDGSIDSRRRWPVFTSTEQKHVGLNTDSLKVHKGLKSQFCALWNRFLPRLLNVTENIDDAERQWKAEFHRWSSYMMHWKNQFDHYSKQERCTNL
Effect on: enzyme activity
Action: inhibitor

Structure (SMILES) | technique | pH | IC50
CC(=O)[C@H]1CC[C@H]2[C@@H]3CC=C4C[C@@H](O)CC[C@]4(C)[C@H]3CC[C@]12C | Ellman | – | 73.2 µM
COc1ccc(C2C(Cc3c[nH]c4ccccc34)NC3(C(=O)Nc4ccc(OC(F)(F)F)cc43)C23Cc2cc(OC)c(OC)cc2C3=O)cc1 (stereo not shown) | – | pH 8 | 3.46 ± 0.2 µM
CCOC(=O)/C=C/c1c(-c2ccc(C)cc2)nc2ccc(/N=N/c3ccc([N+](=O)[O-])cc3)cc2c1-c1ccccc1 | Ellman | pH 7.4 | 18.1 µM
COc1ccc(/C=N/NC(=O)COc2ccc(Sc3ccc(OCC(=O)N/N=C/c4ccc(OC)cc4OC)cc3)cc2)c(OC)c1 | – | – | 40.2 µM
CC(=O)C1=C(C)NC(SCCCSc2nnc(Cc3ccccc3Nc3c(Cl)cccc3Cl)n2-c2ccc(Cl)c(Cl)c2)=NC1c1ccc([N+](=O)[O-])cc1 (stereo not shown) | Ellman | – | 0.09 µM
COc1cc2c(cc1OC)C(=O)C1(C2)C(c2ccc(C)cc2)C(Cc2c[nH]c3ccccc23)NC12C(=O)Nc1ccc(OC(F)(F)F)cc12 (stereo not shown) | – | pH 8 | 12.8 ± 0.15 µM
CCCCc1cc(-c2ccccc2)c2cc(/N=N/c3ccc([N+](=O)[O-])cc3)ccc2n1 | Ellman | pH 7.4 | 17 µM
COc1cccc(C2C(Cc3c[nH]c4ccccc34)NC3(C(=O)Nc4ccc(OC(F)(F)F)cc43)C23Cc2cc(OC)c(OC)cc2C3=O)c1 (stereo not shown) | – | pH 8 | 1.97 ± 0.19 µM
O=C(COc1ccc(Sc2ccc(OCC(=O)N/N=C/c3ccc(O)cc3O)cc2)cc1)N/N=C/c1ccc(O)cc1O | – | – | 39.1 µM
Cc1cc(O)c2c(c1)C(=O)c1c(O)ccc(O)c1C2=O | Ellman | – | 2.7 µM and 2.63 µM
Cc1ccc(-c2nc3ccc(/N=N/c4ccc(Cl)cc4)cc3c(-c3ccccc3)c2I)cc1 | Ellman | pH 7.4 | 11.9 µM
O=C(CN1C(=O)c2ccccc2C1=O)Nc1ccc[n+](Cc2ccc(F)cc2)c1 | Ellman | – | 2.1 µM
O=C(COc1ccc(Sc2ccc(OCC(=O)N/N=C/c3ccc(O)cc3)cc2)cc1)N/N=C/c1ccc(O)cc1 | – | – | 74.2 µM
COc1cc2c(cc1OC)C(=O)C1(C2)C(c2ccc(Cl)cc2)C(Cc2ccccc2)NC12C(=O)Nc1ccc(OC(F)(F)F)cc12 (stereo not shown) | – | pH 8 | 11.3 µM and > 10 µM
CCCCCc1nc2ccc(/N=N/c3ccc(Cl)cc3)cc2c(-c2ccccc2)c1I | Ellman | pH 7.4 | 14.3 µM
COc1cc2c(cc1OC)C(=O)C1(C2)C(c2ccc(Cl)cc2Cl)C(Cc2c[nH]c3ccccc23)NC12C(=O)Nc1ccc(OC(F)(F)F)cc12 (stereo not shown) | – | pH 8 | 14.35 ± 0.14 µM
COc1ccc([C@@H]2N=NC(NCCc3c[nH]c4ccc(C)cc34)=NC2=O)cc1 | Ellman | – | 0.636 µM
O=C(CN1C(=O)c2ccccc2C1=O)Nc1cc[n+](Cc2ccc(F)cc2)cc1 | Ellman | – | 2.1 µM
COc1cccc(C2C(Cc3ccccc3)NC3(C(=O)Nc4ccc(OC(F)(F)F)cc43)C23Cc2cc(OC)c(OC)cc2C3=O)c1 (stereo not shown) | – | pH 8 | 2.06 ± 0.21 µM
CC(C)=CCCC(C)=CCCC(C)=CCc1c(O)cc(O)c(CC=C(C)C)c1-c1cc2ccc(O)cc2o1 | – | – | 13.9 µM
O=c1c(Nc2ccc(O)cc2)c(NC2CCN(Cc3ccccc3)CC2)c1=O | Ellman | – | 9.6 µM
COc1ccc2[nH]cc(CCNS(=O)(=O)CCc3cn(-c4cnc5ccccc5c4)nn3)c2c1 | Ellman | – | 0.006 µM

Structure (SMILES) | technique | pH | IC50
CO/N=C1/c2cc(OC)c(OC)cc2CC1CC1CCN(Cc2ccccc2)CC1 (stereo not shown) | Ellman | – | 0.144 µM
O=C(COc1ccc(Sc2ccc(OCC(=O)N/N=C/c3ccccc3O)cc2)cc1)N/N=C/c1ccccc1O | – | – | 37.7 µM
Cc1ccc(Nc2c(NC3CCN(Cc4ccccc4)CC3)c(=O)c2=O)cc1 | Ellman | – | 8.3 µM
O=C1CCCC2=C1C(c1c[nH]c3ccccc13)n1c(sc(=Cc3c[nH]c4ccccc34)c1=O)=N2 (stereo not shown) | Ellman | – | 10.4 µM
O=C(CN1C(=O)c2ccccc2C1=O)Nc1ccc[n+](Cc2cccc(F)c2)c1 | Ellman | – | 2.9 µM
NNC(=O)COc1ccc(Sc2ccc(OCC(=O)NN)cc2)cc1 | – | – | 23.1 µM
COc1cccc2c1C(O)C1c3c(cc4c(c3-2)OCO4)CCN1C (single isomer, unassigned; (-)) | – | – | 6.12 µM
C[n+]1ccc2c(c1)[nH]c1cc(Br)ccc12 | – | – | 0.67 µM
Ic1ccccc1/N=N/c1ccc2nc(-c3ccccc3)c(I)c(-c3ccccc3)c2c1 | Ellman | pH 7.4 | 16 µM
COc1ccc(-c2c(C#N)c(N)nc3c2CCc2nc4c(cc2-3)c(C)nn4-c2ccccc2)cc1 | Ellman | – | 53.3 µM
O=C(COc1ccc(Sc2ccc(OCC(=O)N/N=C/c3cccc(O)c3)cc2)cc1)N/N=C/c1cccc(O)c1 | – | – | 51.1 µM
COc1ccc2c(c1)CC1c3c(cc4c(c3-2)OCO4)CCN1C (single isomer, unassigned; (-)) | – | – | 11.9 µM
COCCN1COc2c(cc3c4c(c(=O)oc3c2C)CCC4)C1 | Ellman | – | 0.58 µM
COc1cc2c(cc1OC)-c1c(C)c3cc(OC)c(OC)cc3c[n+]1CC2 | – | – | 18.3 µM
C/C=C/c1ccc(OC(C)=O)c(OC)c1 | Ellman | pH 7.5 | 130 µM
O=CN1CCc2cc3c(c4c2C1Cc1ccccc1-4)OCO3 (single isomer, unassigned; (-)) | – | – | 140 µM
C=CCc1ccc(OCC=C(C)C)c(OC)c1 | Ellman | pH 7.5 | 141 µM
COc1cccc2c1CC1c3c(cc4c(c3-2)OCO4)CCN1C (single isomer, unassigned; (-)) | – | – | 11.3 µM
CCN(CCCCOc1ccc(CCC(=O)N2CCC(Cc3ccccc3)CC2)cc1OC)Cc1ccccc1 | Ellman | – | 4.6 µM
COc1cc2c(cc1OC)C(=O)C1(C2)C(c2ccccc2C)C(Cc2ccccc2)NC12C(=O)Nc1ccc(OC(F)(F)F)cc12 (stereo not shown) | – | pH 8 | > 10 µM and 12.5 µM
O=C(CNC(=S)N/N=C/c1ccc([N+](=O)[O-])cc1)c1ccccc1Cl | Ellman | – | 110 µM

Repeated from above:
Structure (SMILES) | technique | pH | IC50
CC(=O)[C@H]1CC[C@H]2[C@@H]3CC=C4C[C@@H](O)CC[C@]4(C)[C@H]3CC[C@]12C | Ellman | – | 73.2 µM
COc1cc2c(cc1OC)C(=O)C1(C2)C(c2ccc(Cl)cc2Cl)C(Cc2c[nH]c3ccccc23)NC12C(=O)Nc1ccc(OC(F)(F)F)cc12 (stereo not shown) | – | pH 8 | 14.35 ± 0.14 µM
COc1cc2c(cc1OC)C(=O)C1(C2)C(c2ccc(Cl)cc2)C(Cc2ccccc2)NC12C(=O)Nc1ccc(OC(F)(F)F)cc12 (stereo not shown) | – | pH 8 | 11.3 µM and > 10 µM
O=C(CNC(=S)N/N=C/c1ccc([N+](=O)[O-])cc1)c1ccccc1Cl | Ellman | – | 110 µM
Cc1ccc(-c2nc3ccc(/N=N/c4ccc(Cl)cc4)cc3c(-c3ccccc3)c2I)cc1 | Ellman | pH 7.4 | 11.9 µM
